Measured values collected from several papers.
Every numbered part comes from another study and shows a few of its results, in no order.
Chain of UniProt P27361 (whole entry, looked up): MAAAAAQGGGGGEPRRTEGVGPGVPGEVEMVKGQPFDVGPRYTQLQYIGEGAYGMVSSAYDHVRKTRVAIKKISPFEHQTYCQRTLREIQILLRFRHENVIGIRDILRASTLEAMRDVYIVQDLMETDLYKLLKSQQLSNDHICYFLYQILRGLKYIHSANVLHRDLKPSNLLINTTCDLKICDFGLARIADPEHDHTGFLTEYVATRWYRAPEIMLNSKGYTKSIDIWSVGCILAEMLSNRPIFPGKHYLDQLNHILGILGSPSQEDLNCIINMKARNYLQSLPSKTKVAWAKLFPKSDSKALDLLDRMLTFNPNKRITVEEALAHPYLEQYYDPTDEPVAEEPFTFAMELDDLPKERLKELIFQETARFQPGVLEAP
Chain of UniProt P32298 (whole entry, looked up): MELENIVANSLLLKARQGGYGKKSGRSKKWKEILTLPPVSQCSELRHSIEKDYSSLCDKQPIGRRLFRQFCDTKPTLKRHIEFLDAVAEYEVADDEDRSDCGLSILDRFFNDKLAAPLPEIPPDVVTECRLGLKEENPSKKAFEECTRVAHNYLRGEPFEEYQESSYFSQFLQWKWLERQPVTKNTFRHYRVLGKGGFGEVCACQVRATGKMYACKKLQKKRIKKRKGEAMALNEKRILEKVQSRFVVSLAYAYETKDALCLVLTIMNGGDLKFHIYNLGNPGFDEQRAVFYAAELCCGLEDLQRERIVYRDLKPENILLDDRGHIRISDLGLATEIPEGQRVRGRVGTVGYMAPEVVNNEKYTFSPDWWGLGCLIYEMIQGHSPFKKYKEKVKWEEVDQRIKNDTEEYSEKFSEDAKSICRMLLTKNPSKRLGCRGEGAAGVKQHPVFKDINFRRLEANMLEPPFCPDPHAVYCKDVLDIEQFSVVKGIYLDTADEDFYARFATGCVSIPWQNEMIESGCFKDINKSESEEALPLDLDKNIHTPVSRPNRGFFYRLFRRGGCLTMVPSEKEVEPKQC
Chain of UniProt P51812 (whole entry, looked up): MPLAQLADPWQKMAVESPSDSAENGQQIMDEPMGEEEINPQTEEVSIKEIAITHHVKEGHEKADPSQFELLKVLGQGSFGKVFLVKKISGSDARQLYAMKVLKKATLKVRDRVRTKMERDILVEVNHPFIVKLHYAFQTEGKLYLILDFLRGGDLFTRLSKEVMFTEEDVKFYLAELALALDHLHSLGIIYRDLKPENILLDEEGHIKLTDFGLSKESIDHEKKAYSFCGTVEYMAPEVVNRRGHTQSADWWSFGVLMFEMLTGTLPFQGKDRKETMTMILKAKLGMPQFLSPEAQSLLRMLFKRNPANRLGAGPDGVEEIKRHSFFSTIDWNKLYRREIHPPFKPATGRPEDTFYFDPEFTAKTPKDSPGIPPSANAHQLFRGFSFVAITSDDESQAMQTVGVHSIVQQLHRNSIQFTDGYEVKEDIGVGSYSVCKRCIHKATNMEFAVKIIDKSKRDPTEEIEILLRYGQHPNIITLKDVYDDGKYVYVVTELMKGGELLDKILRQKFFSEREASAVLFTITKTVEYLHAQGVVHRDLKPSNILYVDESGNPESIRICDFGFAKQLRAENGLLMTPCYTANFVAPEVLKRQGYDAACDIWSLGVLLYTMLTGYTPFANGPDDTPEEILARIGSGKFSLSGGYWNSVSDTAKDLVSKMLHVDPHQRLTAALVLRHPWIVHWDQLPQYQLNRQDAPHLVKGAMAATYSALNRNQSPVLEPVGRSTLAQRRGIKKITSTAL
Chain of UniProt Q99640 (whole entry, looked up): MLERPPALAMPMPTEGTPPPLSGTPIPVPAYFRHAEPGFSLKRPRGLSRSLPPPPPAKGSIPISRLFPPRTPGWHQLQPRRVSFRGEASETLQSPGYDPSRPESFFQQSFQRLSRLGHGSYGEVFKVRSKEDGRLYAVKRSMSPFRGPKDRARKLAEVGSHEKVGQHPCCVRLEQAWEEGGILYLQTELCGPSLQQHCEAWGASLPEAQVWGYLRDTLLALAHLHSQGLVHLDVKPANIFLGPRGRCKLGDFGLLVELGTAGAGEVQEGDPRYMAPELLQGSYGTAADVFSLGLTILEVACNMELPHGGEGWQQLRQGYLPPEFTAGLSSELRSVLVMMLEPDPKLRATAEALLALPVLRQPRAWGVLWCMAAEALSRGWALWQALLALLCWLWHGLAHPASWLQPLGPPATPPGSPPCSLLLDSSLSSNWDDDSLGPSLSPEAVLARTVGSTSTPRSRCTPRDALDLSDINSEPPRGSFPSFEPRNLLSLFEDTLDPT
Chain of UniProt P11362 (whole entry, looked up): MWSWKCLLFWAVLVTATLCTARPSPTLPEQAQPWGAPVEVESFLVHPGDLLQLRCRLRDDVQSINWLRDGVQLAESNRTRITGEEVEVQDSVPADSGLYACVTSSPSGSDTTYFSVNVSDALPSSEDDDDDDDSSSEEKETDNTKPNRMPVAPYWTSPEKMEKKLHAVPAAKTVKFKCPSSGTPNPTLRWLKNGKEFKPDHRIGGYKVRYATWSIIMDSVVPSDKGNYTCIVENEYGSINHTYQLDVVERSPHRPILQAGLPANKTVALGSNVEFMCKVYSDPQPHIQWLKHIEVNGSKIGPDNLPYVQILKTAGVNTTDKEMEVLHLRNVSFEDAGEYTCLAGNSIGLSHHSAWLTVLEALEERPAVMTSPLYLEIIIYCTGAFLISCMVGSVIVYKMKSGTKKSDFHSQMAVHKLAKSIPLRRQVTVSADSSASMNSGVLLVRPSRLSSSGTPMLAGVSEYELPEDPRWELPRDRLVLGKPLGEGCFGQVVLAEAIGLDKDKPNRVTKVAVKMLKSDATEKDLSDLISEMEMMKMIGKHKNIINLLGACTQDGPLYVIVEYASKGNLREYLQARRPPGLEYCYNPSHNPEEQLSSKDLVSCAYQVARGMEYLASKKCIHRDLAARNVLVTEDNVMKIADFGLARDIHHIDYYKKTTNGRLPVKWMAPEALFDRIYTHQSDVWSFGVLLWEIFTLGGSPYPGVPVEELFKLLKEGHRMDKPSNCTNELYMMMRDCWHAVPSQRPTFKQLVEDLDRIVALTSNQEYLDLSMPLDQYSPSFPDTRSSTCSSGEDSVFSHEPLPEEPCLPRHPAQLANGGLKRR
Chain of UniProt P07333 (whole entry, looked up): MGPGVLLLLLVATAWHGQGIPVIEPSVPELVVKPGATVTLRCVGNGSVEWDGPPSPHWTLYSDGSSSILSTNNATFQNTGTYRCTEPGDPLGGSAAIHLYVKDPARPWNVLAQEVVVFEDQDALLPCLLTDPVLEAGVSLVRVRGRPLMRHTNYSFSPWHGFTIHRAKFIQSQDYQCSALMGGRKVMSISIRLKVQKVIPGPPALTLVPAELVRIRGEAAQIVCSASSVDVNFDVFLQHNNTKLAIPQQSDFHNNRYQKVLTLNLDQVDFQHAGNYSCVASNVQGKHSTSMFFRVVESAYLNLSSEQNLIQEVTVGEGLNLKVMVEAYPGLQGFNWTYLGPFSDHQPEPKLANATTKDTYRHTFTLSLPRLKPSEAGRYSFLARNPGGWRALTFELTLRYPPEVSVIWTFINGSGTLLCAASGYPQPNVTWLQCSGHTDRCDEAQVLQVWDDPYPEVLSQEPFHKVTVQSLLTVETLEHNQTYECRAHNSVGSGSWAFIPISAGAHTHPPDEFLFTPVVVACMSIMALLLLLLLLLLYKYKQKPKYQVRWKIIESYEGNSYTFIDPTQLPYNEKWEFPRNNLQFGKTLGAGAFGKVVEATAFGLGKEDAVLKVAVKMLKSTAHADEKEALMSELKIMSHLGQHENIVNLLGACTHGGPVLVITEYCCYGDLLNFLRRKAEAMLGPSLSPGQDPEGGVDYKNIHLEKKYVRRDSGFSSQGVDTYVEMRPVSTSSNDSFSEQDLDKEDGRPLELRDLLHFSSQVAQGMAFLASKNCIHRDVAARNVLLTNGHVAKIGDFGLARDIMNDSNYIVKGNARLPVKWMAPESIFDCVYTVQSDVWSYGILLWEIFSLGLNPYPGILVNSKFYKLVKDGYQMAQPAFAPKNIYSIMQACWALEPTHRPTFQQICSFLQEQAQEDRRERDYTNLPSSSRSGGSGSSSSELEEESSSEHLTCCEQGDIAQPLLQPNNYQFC
Chain of UniProt Q8IVW4 (whole entry, looked up): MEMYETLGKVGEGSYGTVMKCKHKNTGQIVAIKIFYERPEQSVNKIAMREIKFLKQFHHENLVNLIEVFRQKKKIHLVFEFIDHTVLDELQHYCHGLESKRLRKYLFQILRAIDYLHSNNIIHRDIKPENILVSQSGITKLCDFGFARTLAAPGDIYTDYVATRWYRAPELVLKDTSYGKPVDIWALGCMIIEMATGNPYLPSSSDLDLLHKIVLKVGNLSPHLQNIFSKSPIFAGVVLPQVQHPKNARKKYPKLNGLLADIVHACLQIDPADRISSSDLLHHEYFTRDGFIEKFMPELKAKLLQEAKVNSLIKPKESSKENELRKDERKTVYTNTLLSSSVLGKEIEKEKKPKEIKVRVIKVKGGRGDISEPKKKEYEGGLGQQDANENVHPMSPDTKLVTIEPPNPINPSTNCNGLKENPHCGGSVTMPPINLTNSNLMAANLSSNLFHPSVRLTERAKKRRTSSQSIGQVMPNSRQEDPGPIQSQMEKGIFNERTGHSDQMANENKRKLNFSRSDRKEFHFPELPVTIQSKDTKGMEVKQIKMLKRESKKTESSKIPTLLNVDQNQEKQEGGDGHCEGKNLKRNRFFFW

Block 1 — read-out: cell-free assay; method: competition with immobilised ligand; concentration: 0.1 µM; measurement: remaining binding
Structure (SMILES): CS(=O)(=O)N1CCCC(NC(=O)[C@H](CCC2CCCCC2)NC(=O)c2ccc(CNc3ncnc4c3nnn4-c3ccccc3)cc2)C1 (stereo partly shown)
Epidermal growth factor receptor (EGFR, Homo sapiens, UniProt P00533, T790M): 100%
Mitogen-activated protein kinase 3 (MAPK3, Homo sapiens, UniProt P27361): 89%
Tyrosine-protein kinase ABL1, non-phosphorylated (ABL1, Homo sapiens, UniProt P00519, Q252H): 89%
Ribosomal protein S6 kinase alpha-3, C-terminal kinase domain (RPS6KA3, Homo sapiens, UniProt P51812): 100%
Hepatocyte growth factor receptor (MET, Homo sapiens, UniProt P08581, M1250T): 87%
Cyclin-dependent kinase-like 3 (CDKL3, Homo sapiens, UniProt Q8IVW4): 96%
Serine/threonine-protein kinase ULK3 (ULK3, Homo sapiens, UniProt Q6PHR2): 99%
Membrane-associated tyrosine- and threonine-specific cdc2-inhibitory kinase (PKMYT1, Homo sapiens, UniProt Q99640): 74%
Macrophage colony-stimulating factor 1 receptor (CSF1R, Homo sapiens, UniProt P07333): 100%
G protein-coupled receptor kinase 4 (GRK4, Homo sapiens, UniProt P32298): 100%
Fibroblast growth factor receptor 1 (FGFR1, Homo sapiens, UniProt P11362): 91%

Block 2 — cell line: A-375; concentration: 100 µM; time: 36 h; measurement: viability
C[C@H]1O[C@@H](O[C@H]2CC[C@@]3(C)[C@@H](CC[C@]4(C)[C@@H]3C=C[C@]35OC[C@@]6(CCC(C)(C)C[C@H]63)[C@@H](O)C[C@]54C)[C@]2(C)CO)[C@H](O)[C@@H](O[C@@H]2O[C@H](CO)[C@@H](O)[C@H](O)[C@H]2O)[C@H]1O: 0.91%
OC[C@H]1O[C@H](OC[C@H]2O[C@H](OC[C@H]3O[C@H](O[C@]4(CO)O[C@H](CO)[C@@H](O)[C@@H]4O)[C@H](O)[C@@H](O)[C@@H]3O)[C@H](O)[C@@H](O)[C@H]2O)[C@H](O)[C@@H](O)[C@H]1O: 46.9%
O=C(O)c1ccccc1C(=O)Nc1ccc(S(=O)(=O)Nc2nccs2)cc1: 125%
Cc1ccsc1C(=CCCN1CCC[C@@H](C(=O)O)C1)c1sccc1C: 91.5%
Cc1nnc(NS(=O)(=O)c2ccc(N)cc2)s1: 109%
CCCCCCCC(=O)N[C@H](CN1CCCC1)[C@H](O)c1ccc2c(c1)OCCO2: 19.3%
Cc1nc2n(c(=O)c1CCN1CCC(c3noc4cc(F)ccc34)CC1)CCCC2O (stereo not shown): 96.4%
CO[C@@]1(NC(=O)CSCC#N)C(=O)N2C(C(=O)O)=C(CSc3nnnn3C)CS[C@@H]21: 100%
C[C@H]1O[C@H](O[C@H]2[C@H](O)[C@@H](O)[C@@H](O[C@H]3[C@H](O)[C@@H](O)C(O)O[C@@H]3CO)O[C@@H]2CO)[C@H](O)[C@@H](O)[C@@H]1N[C@H]1C=C(CO)[C@@H](O)[C@H](O)[C@H]1O (stereo partly shown): 110%
CN(C)CCC(c1ccc(Br)cc1)c1ccccn1 (stereo not shown): 76%

Block 3 — read-out: enzyme activity; action: inhibitor; concentration: 0.5 µM; reference: control; measurement: remaining activity
Target: Epidermal growth factor receptor (EGFR, Homo sapiens, UniProt P00533)
O=C(O)/C=C/c1cc(Br)c(Br)c(Br)c1Br: 98.4%
O=Nc1c(-c2c(O)[nH]c3cc(Br)ccc23)[nH]c2ccccc12: 89%
CC(C)(C)c1nc2c3cc[nH]c(=O)c3c3cc(F)ccc3c2[nH]1: 94.8%
O=C(c1ccccc1)c1ccc(N2CCOCC2)cc1O: 94.9%
CCN(CC)CCCCN1c2ccccc2Oc2ccc(Cl)cc21: 99.2%
CN1CCN(c2ccc3nc(-c4c(N)c5c(F)cccc5[nH]c4=O)[nH]c3c2)CC1: 97.2%
O=C1NC(=O)c2c1c1c3ccccc3[nH]c1c1[nH]c3cc(Br)ccc3c21: 100%
FC(F)(F)c1ccc(/C=C/c2nc(COc3ccc(CCCCn4ccnn4)cc3)co2)cc1: 97.7%
c1ccc2c(-c3ccncc3)c[nH]c2c1: 97.3%
O=C1NC(=O)c2c1c1c3ccccc3[nH]c1n1cncc21: 92.7%
O=C1NC(=O)/C(=C/c2ccc3c(c2)OC(F)(F)O3)S1: 85.1%
O=Nc1c(-c2c(O)[nH]c3ccccc23)[nH]c2ccccc12: 97.1%
COc1cccc(-c2cc(=O)c3ccccc3o2)c1N: 81.2%
O=C(c1cc2cc(O)ccc2[nH]1)c1cc2cc(O)ccc2[nH]1: 97.6%
O=C1Nc2ccccc2/C1=C\c1c(Cl)[nH]c2ccccc12: 97.5%

Block 4 — organism: Sarcocystis neurona; read-out: parasite growth; concentration: 10 µM; measurement: inhibition
COC(=O)C1=C(C)NC(C)=C(C(=O)OCCN(C)Cc2ccccc2)C1c1cccc([N+](=O)[O-])c1 (stereo not shown): -32.1%
Cc1[nH]c(=O)c(C#N)cc1-c1ccncc1: -29.1%
CC[C@H]1OC(=O)[C@H](C)[C@@H](O[C@H]2C[C@@](C)(OC)[C@@H](O)[C@H](C)O2)[C@H](C)[C@@H](O[C@@H]2O[C@H](C)C[C@H](N(C)C)[C@H]2O)[C@](C)(O)C[C@@H](C)CN(C)[C@H](C)[C@@H](O)[C@]1(C)O: 2.2%
N[C@@H](Cc1cc(I)c(Oc2cc(I)c(O)c(I)c2)c(I)c1)C(=O)O: -36.8%
COc1ccc(-c2cc(=O)c3c(OC)c(OC)c(OC)c(OC)c3o2)cc1OC: 16.1%
CC(C)(C)NC(=O)[C@H]1CC[C@H]2[C@@H]3CC[C@H]4NC(=O)C=C[C@]4(C)[C@H]3CC[C@]12C: 25.5%
CCn1cc(C(=O)O)c(=O)c2ccc(C)nc21: -23.8%

For quick reference, copied from above (block 3):
O=Nc1c(-c2c(O)[nH]c3ccccc23)[nH]c2ccccc12: 97.1%
O=Nc1c(-c2c(O)[nH]c3cc(Br)ccc23)[nH]c2ccccc12: 89%
O=C1NC(=O)/C(=C/c2ccc3c(c2)OC(F)(F)O3)S1: 85.1%
COc1cccc(-c2cc(=O)c3ccccc3o2)c1N: 81.2%
O=C(O)/C=C/c1cc(Br)c(Br)c(Br)c1Br: 98.4%
